Assay results of several laboratories.
A part holds a random share of what one study measured.
Chain of UniProt P10721 (whole entry, unmodified, looked up): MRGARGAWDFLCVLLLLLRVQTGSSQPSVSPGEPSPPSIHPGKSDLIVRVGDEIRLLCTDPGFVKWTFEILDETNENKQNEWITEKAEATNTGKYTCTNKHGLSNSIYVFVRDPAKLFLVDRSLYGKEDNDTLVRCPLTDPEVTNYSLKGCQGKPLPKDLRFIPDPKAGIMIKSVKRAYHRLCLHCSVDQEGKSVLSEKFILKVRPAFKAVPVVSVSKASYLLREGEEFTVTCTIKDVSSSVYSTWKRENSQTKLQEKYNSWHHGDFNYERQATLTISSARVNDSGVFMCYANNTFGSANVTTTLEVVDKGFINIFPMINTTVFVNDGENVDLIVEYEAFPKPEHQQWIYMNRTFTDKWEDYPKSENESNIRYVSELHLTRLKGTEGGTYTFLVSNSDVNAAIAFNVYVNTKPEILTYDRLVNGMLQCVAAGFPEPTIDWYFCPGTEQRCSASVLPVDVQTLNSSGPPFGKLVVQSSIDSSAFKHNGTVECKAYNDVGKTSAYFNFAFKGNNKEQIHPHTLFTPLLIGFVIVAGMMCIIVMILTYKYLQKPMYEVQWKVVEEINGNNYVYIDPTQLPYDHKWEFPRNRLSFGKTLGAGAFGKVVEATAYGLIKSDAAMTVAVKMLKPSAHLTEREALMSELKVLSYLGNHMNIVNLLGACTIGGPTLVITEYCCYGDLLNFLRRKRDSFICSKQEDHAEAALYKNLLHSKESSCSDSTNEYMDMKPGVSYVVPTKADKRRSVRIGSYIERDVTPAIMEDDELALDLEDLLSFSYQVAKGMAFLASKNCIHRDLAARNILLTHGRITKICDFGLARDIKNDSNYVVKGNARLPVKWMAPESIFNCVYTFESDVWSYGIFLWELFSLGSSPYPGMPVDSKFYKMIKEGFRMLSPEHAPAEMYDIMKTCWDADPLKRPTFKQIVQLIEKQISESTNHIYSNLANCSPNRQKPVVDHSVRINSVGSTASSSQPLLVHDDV
Chain of UniProt Q9Y6M4 (whole entry, looked up): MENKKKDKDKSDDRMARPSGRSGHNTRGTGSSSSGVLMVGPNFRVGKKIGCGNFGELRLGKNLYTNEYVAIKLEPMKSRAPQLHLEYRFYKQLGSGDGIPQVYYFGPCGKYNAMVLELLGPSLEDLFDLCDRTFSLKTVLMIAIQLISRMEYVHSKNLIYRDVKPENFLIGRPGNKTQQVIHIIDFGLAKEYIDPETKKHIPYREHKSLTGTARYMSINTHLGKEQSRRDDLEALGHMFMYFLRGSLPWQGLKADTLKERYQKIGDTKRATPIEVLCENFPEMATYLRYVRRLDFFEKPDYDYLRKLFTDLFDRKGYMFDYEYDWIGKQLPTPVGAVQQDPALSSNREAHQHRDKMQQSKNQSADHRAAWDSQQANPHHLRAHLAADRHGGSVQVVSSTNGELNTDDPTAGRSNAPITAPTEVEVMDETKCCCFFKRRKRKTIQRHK
Chain of UniProt P52333 (whole entry, looked up): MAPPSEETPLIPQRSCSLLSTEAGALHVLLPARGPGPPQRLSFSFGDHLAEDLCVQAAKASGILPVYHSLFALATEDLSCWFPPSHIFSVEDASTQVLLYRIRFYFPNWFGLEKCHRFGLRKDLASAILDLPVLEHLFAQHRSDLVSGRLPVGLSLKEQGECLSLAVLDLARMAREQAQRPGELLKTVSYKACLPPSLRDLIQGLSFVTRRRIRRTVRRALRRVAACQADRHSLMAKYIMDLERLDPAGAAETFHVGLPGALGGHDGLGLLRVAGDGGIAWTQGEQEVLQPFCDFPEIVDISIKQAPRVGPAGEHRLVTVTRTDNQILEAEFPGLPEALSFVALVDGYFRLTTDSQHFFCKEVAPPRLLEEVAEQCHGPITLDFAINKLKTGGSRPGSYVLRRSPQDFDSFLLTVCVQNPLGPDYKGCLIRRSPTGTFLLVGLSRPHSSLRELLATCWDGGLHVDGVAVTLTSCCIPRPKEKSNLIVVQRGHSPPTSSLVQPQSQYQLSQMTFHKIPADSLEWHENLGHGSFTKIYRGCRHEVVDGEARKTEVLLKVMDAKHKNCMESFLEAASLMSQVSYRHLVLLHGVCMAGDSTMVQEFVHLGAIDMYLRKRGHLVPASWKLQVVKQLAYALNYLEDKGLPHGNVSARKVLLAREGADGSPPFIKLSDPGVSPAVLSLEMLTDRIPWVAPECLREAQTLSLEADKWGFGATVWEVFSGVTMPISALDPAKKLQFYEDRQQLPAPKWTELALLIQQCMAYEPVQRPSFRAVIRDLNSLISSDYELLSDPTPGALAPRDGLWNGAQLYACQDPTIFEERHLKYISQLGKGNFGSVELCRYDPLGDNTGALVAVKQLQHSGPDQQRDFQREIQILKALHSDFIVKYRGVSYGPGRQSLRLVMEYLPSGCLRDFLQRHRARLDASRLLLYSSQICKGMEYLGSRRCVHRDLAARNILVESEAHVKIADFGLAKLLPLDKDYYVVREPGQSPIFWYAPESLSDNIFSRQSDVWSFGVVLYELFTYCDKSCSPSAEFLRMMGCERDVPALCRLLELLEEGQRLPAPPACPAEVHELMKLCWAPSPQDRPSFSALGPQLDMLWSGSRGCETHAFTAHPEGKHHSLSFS
Chain of UniProt Q15349 (whole entry, looked up): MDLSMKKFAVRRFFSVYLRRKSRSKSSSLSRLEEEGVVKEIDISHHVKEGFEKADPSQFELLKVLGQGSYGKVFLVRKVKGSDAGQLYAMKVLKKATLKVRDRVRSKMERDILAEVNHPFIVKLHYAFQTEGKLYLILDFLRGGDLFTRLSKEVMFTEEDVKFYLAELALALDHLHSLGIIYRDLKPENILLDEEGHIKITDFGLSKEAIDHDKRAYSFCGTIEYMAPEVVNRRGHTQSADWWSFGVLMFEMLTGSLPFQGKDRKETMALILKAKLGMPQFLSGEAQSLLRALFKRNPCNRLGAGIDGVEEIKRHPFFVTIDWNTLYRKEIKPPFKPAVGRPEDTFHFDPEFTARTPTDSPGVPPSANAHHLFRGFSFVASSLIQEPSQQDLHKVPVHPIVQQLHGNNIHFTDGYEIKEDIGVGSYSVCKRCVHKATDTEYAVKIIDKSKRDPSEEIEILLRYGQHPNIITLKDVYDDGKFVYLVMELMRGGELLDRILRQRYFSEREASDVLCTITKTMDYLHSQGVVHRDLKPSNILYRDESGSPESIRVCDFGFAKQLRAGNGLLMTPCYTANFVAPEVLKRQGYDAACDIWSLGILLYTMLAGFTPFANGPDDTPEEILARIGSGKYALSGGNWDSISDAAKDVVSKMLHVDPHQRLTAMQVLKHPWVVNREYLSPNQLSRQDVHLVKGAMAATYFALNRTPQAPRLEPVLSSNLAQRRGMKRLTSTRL
Chain of UniProt Q8H174 (whole entry, looked up): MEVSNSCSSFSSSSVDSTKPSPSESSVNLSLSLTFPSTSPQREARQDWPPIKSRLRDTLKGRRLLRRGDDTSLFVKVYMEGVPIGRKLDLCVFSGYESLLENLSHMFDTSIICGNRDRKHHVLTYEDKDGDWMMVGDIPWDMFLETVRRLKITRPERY
Chain of UniProt P10398 (whole entry, looked up): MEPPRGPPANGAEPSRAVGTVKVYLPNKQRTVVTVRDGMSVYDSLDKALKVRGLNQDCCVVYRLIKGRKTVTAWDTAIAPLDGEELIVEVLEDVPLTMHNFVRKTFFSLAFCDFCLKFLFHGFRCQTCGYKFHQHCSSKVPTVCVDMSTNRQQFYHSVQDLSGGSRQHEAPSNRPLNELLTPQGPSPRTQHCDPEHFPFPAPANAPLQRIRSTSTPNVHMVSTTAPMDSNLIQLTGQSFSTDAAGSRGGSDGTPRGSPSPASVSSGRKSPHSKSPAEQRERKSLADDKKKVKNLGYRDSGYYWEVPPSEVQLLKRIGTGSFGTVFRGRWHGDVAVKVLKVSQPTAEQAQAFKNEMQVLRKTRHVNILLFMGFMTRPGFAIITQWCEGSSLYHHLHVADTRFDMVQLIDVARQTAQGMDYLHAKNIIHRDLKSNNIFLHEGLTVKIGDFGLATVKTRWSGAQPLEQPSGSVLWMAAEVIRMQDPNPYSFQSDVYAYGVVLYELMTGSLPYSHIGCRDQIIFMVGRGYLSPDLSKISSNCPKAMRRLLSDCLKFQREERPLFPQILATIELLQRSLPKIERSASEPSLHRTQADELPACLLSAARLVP
Chain of UniProt O14733 (whole entry, looked up): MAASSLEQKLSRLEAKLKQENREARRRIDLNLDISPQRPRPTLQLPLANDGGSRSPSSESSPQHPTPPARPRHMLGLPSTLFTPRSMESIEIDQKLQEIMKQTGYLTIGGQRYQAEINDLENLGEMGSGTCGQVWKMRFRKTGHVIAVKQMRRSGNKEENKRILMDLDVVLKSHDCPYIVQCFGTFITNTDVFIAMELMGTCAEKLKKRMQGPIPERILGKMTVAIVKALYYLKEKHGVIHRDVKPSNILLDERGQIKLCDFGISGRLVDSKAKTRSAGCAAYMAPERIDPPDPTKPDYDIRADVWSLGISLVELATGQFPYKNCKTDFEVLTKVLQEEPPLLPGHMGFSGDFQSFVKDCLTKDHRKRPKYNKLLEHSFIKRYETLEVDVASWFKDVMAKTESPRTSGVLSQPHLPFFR
Chain of UniProt Q8LAL2 (whole entry, looked up): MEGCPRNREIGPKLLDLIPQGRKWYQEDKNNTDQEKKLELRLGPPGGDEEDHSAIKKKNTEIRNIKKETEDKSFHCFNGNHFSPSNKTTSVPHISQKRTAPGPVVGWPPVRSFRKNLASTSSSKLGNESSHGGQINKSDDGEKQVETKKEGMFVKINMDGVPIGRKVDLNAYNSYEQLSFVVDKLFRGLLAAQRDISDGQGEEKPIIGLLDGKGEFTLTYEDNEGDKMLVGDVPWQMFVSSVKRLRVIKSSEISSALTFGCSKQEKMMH
Chain of UniProt Q9FKM7 (whole entry, looked up): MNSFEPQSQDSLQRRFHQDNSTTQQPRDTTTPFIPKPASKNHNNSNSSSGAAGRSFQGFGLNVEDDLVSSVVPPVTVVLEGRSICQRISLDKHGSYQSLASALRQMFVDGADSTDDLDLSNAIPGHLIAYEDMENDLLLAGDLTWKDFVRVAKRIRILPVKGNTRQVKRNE

Sample 1
SMILES: C[C@H](c1ccc(F)cc1)N(Cc1cccc(C(=O)O)c1)C(=O)c1cnc2ccccc2c1
Effect on: cell-free assay
Technique: competition with immobilised ligand
Concentration: 1 µM
| target | remaining binding |
| --- | --- |
| SRPK2 (Homo sapiens, UniProt P78362) | 98% |
| Tyrosine-protein kinase ABL1, phosphorylated (ABL1, Homo sapiens, UniProt P00519, Q252H) | 89% |
| MAP4K5 (Homo sapiens, UniProt Q9Y4K4) | 100% |
| MAP2K2 (Homo sapiens, UniProt P36507) | 100% |
| KIT (Homo sapiens, UniProt P10721) | 100% |
| KIT (Homo sapiens, UniProt P10721, V559D/V654A) | 100% |
| MAP2K7 (Homo sapiens, UniProt O14733) | 100% |
| PLK2 (Homo sapiens, UniProt Q9NYY3) | 100% |

Sample 2
Compound: O=C(c1cc2cc(O)ccc2[nH]1)c1cc2cc(O)ccc2[nH]1
Effect on: enzyme activity
Action: inhibitor
Concentration: 0.5 µM
Reference: control
| target | remaining activity |
| --- | --- |
| WEE1 (Homo sapiens, UniProt P30291) | 90.6% |
| RPS6KA2 (Homo sapiens, UniProt Q15349) | 22.2% |
| CSNK1G3 (Homo sapiens, UniProt Q9Y6M4) | 77.2% |
| JAK3 (Homo sapiens, UniProt P52333) | 94.5% |
| FGFR1 (Homo sapiens, UniProt P11362) | 86.5% |
| FRK (Homo sapiens, UniProt P42685) | 86.1% |
| TAOK2 (Homo sapiens, UniProt Q9UL54) | 99% |
| MAP3K5 (Homo sapiens, UniProt Q99683) | 89.6% |
| MAPK3 (Homo sapiens, UniProt P27361) | 107% |
| MAPKAPK2 (Homo sapiens, UniProt P49137) | 103% |
| ARAF (Homo sapiens, UniProt P10398) | 98.6% |
| NEK1 (Homo sapiens, UniProt Q96PY6) | 93.4% |
| GRK7 (Homo sapiens, UniProt Q8WTQ7) | 99.8% |
| FGFR3 (Homo sapiens, UniProt P22607) | 92.1% |

Sample 3
Sequence: B1 (IAA4)
Technique: two-hybrid
Direction: higher = firmer interaction
B1: IAA4 (Arabidopsis thaliana, UniProt P33077); chain MEKVDVYDELVNLKATELRLGLPGTEETVSCGKSNKRVLPEATEKEIESTGKTETASPPKAQIVGWPPVRSYRKNNVQTKKSESEGQGNYVKVSMDGAPYLRKIDLTMYKQYPELMKSLENMFKFSVGEYFEREGYKGSDFVPTYEDKDGDWMLVGDVPWEMFVSSCKRLRIMKGSEVKGLGCGGL
| partner | reference | positive tests |
| --- | --- | --- |
| IAA26 (Arabidopsis thaliana, UniProt Q8LAL2) | out of 4 tests | 1 |
| IAA29 (Arabidopsis thaliana, UniProt Q93WC4) | out of 4 tests | 1 |
| IAA32 (Arabidopsis thaliana, UniProt Q8RYC6) | out of 4 tests | 0 |
| ARF8 699-811 (Arabidopsis thaliana, UniProt Q9FGV1) | out of 4 tests | 4 |
| IAA31 (Arabidopsis thaliana, UniProt Q8H174) | out of 2 tests | 0 |
| IAA33 (Arabidopsis thaliana, UniProt Q9FKM7) | out of 4 tests | 1 |

Sample 4
Target: TAR DNA-binding protein 43, full length, His tag (TARDBP, Homo sapiens, UniProt Q13148, residues 1-414)
Technique: RNA Bind-n-Seq
Form: RNA
Sample: in vitro
Concentration: 20 nM
Notes: 6-mer, flanks averaged, single round
Together with: 150 mM LiCl
Reference: input library
Direction: higher = stronger binding
| Strand | 6-mer enrichment (R) |
| --- | --- |
| CAGGUC | 0.865 |
| AACCAA | 0.834 |
| UAGGAC | 0.938 |
| CGUUAA | 0.85 |
| ACCGCA | 0.88 |
| CGAGGG | 1.1 |
| ACCUCA | 0.863 |
| UACGUC | 0.899 |

Some of these lines once more (sample 2):
| target | remaining activity |
| --- | --- |
| JAK3 (Homo sapiens, UniProt P52333) | 94.5% |
| FGFR1 (Homo sapiens, UniProt P11362) | 86.5% |
| FRK (Homo sapiens, UniProt P42685) | 86.1% |
